Measurements of several laboratories.
Lines come from different studies, so protocols differ. ± gives the spread as reported.

| Structure (SMILES) | test | system | conditions | scale | AUC(0-t) |
| --- | --- | --- | --- | --- | --- |
| Cn1cc(-c2cn3nccc3c(-c3cnn([C@]4(CC#N)C[C@@H](C#N)C4)c3)n2)cn1 |  | healthy humans fasted, plasma | 400 mg single dose, geometric mean |  | 2770 ng·h/mL |
| CO[C@H]1C[C@@H]2CC[C@@H](C)[C@@](O)(O2)C(=O)C(=O)N2CCCC[C@H]2C(=O)O[C@H]([C@H](C)C[C@@H]2CC[C@@H](OC(=O)NCCOCCOCCOCCOCCOCCOCCOCCOCCC(=O)N3CCc4cc(Cn5nc(-c6ccc7oc(N)nc7c6)c6c(N)ncnc65)ccc4C3)[C@H](OC)C2)C[C@@H](O)[C@H](C)/C=C(\C)[C@@H](O)[C@@H](OC)C(=O)[C@H](C)C[C@H](C)/C=C/C=C/C=C/1C |  | human, plasma | intravenous, 8 mg, cycle 1 day 15, arithmetic mean |  | 828 ng·h/mL |
| Cl.[2H]C([2H])([2H])CC(=O)c1cnc(NC(=O)C2CC2)cc1Nc1cccc(-c2ncn(C([2H])([2H])[2H])n2)c1OC | geometric mean | human | oral, 100 mg single dose, fasted, liquid |  | 11100 ng·h/mL |
| CC(=O)N1CCC(Nc2cc(C(=O)NC[C@H](O)CN3CCc4ccccc4C3)ncn2)CC1 |  | human | oral, 400 mg, geometric mean |  | 6670 ng·h/mL |
| CC(C)n1c(Nc2cccnc2)nc2cnc(Nc3ccc(N4CCN(C)CC4)cc3)nc21 |  | human, male, plasma | oral, 150 mg, day 1, single dose alone |  | 1370 ng·h/mL |
| Cc1[nH]c(/C=C2\C(=O)Nc3ccc(F)cc32)c(C)c1C(=O)N[C@H]1CCN(C(=O)N(C)C)C1 |  | human patients, plasma | oral, 200 mg single dose, together with: everolimus 5 mg |  | 10600 ± 7570 ng·h/mL |
| CC(=O)O[C@H]1C(=O)[C@@]2(C)[C@H]([C@H](OC(=O)c3ccccc3)[C@]3(O)C[C@H](OC(=O)[C@H](O)[C@@H](NC(=O)c4ccccc4)c4ccccc4)C(C)=C1C3(C)C)[C@]1(OC(C)=O)CO[C@@H]1C[C@@H]2O | noncompartmental analysis | human cancer patients, plasma | intravenous infusion, 60 mg/m^2, cycle 1 day 1, together with: daily oral co-medication |  | 2680 ng·h/mL |
| COC(=O)N[C@@H](C)CNc1nccc(-c2cn(C(C)C)nc2-c2cc(Cl)cc(NS(C)(=O)=O)c2F)n1 |  | human, plasma | oral, 50 mg, geometric mean, together with: diltiazem 240 mg once daily |  | 3500 ng·h/mL |
| C#C[C@]1(CO)O[C@@H](n2cnc3c(N)nc(F)nc32)C[C@@H]1O |  | human, plasma | oral, 200 mg, single dose, geometric mean |  | 21.7 µM·h |
| CN1CCC(COc2cnc(-c3cccc(Cn4nc(-c5cccc(C#N)c5)ccc4=O)c3)nc2)CC1 |  | human | 500 mg, day 1, alone, geometric mean |  | 24100 ng·h/mL |
| CO[C@@H]1[C@H](OC(=O)N2CC(CCN3CCOCC3)C2)CC[C@]2(CO2)[C@H]1[C@@]1(C)O[C@@H]1CC=C(C)C |  | humans, plasma | subcutaneous, 1.8 mg twice weekly, fifth dose |  | 9.61 ± 6.71 ng·h/mL |
| CN[C@@H](C)C(=O)N[C@H]1CN(S(=O)(=O)c2cccc(S(=O)(=O)N3CC[C@H]4CC[C@@H](C(=O)NC(c5ccccc5)c5ccccc5)N4C(=O)[C@@H](NC(=O)[C@H](C)NC)C3)c2)CC[C@H]2CC[C@@H](C(=O)NC(c3ccccc3)c3ccccc3)N2C1=O | LC-MS/MS, noncompartmental | human, plasma | 30 mg, cycle 1 day 1 |  | 952 ± 500 ng·h/mL |
| C=CC(=O)N(C)CCOc1c(N)ncnc1-c1cc(F)cc(NC(=O)c2ccc(C3CC3)cc2F)c1C |  | human, whole blood | oral, 100 mg, single ascending dose |  | 269 ng·h/mL |
| CO[C@]1(C(=O)N[C@@H](C)c2ccc(-n3cc(F)cn3)nc2)CC[C@H](c2nc(C)cc(Nc3cc(C)[nH]n3)n2)CC1 |  | human, plasma | oral, 200 mg, geometric mean |  | 11400 ng·h/mL |
| O=C(O)c1cc(/N=N/c2ccc(S(=O)(=O)Nc3ccccn3)cc2)ccc1O | LC-MS | human, plasma | oral, 1000 mg, day 1 |  | 67300 ng·h/mL |
| NC1(C(=O)N[C@@H](CCO)c2ccc(Cl)cc2)CCN(c2nc[nH]c3nccc2-3)CC1 |  | human patients, plasma | dose not given, cohort 160/320, cycle 2, geometric mean |  | 1330 ng·h/mL |
| COC(=O)N[C@@H](C)CNc1nccc(-c2cn(C(C)C)nc2-c2cc(Cl)cc(NS(C)(=O)=O)c2F)n1 |  | human patients, plasma | oral, 450 mg twice daily, day 14, steady state, geometric mean, together with: binimetinib 45 mg once daily |  | 12700 ng·h/mL |
| CNC(=O)n1ccc2cc(Oc3ccnc(NC(=O)c4ccc(C5CCN(CCO)CC5)cc4)c3)c(OCCOC)cc21 |  | healthy human, plasma | oral, 35 mg, geometric mean, together with: rabeprazole 20 mg |  | 115 ng·h/mL |
| [H]/N=C(/N)c1ccc(NCc2nc3cc(C(=O)N(CCC(=O)O)c4ccccn4)ccc3n2C)cc1 |  | healthy human subjects, plasma | oral, 150 mg, dabigatran etexilate, geometric mean, together with: fruquintinib 5 mg |  | 876 ng·h/mL |
| Cc1cc(C)c(CNC(=O)c2cc(Cl)c3c(c2C)O[C@@](C)([C@H]2CC[C@H](N(C)C)CC2)O3)c(=O)[nH]1 | mean | healthy male humans, plasma | oral, 25 mg, day 1, alone, itraconazole group |  | 768 ng·h/mL |

| Structure (SMILES) | test | system | conditions | scale | AUC(0-t) |
| --- | --- | --- | --- | --- | --- |
| CCCOc1ccc(NC(=O)CN2CCN(C)CC2)cc1-c1nc(CC)c(CC)c(=O)[nH]1 |  | human, fasting, plasma | oral, 10 mg, together with: placebo |  | 551 ± 81.4 ng·h/mL |
| Cc1cc(C)c(CNC(=O)c2cc(Cl)c3c(c2C)O[C@@](C)([C@H]2CC[C@H](N(C)C)CC2)O3)c(=O)[nH]1 |  | human, plasma | oral, 200 mg [14C] single dose, 24 h |  | 12000 ng·h/mL |
| NC[C@@]1(CC(=O)O)[C@@H]2CC[C@H]3C[C@@H]2[C@@H]1C3 |  | human, moderately renal impairment, plasma | dose not given, geometric least squares mean |  | 3860 ng·h/mL |
| Cc1ccc(NC(=O)c2ccc(CN3CCN(C)CC3)cc2)cc1Nc1nccc(-c2cncc(-c3oncc3C)c2)n1 |  | healthy human volunteers, plasma | oral, 200 mg/day, multiple ascending dose, steady state |  | 97200 ± 23100 ng·h/mL |
| Cc1cc(-c2nnc(N)nc2-c2ccc(F)cc2)cc(Cl)n1 |  | human patients, plasma | oral, 200 mg capsule once daily, multiple doses, arithmetic mean |  | 9970 ng·h/mL |
| CCN1CCN(Cc2ccc(Nc3ncc(F)c(-c4cc(F)c5nc6n(c5c4)[C@H](C)CCC6)n3)nc2)CC1 |  | human, plasma | 100 mg single dose, mean |  | 4620 ng·h/mL |
| CN(CC#N)C(=O)C[C@H](Nc1nc2ccccc2[nH]1)c1cccc(C(F)(F)F)c1 |  | human | intravenous infusion, 1.5 mg/kg, 1 mg/mL formulation |  | 7290 ± 1570 ng·h/mL |
| CO[C@H]1CC[C@H](N2C(=O)CNc3ncc(-c4ccc(C(C)(C)O)nc4)nc32)CC1 |  | human, plasma | oral, 30 mg, day -1, geometric mean |  | 1200 ng·h/mL |
| C[C@H]1CN(C(=O)CC#N)[C@]12CCN(c1ncnc3[nH]ccc13)C2 |  | healthy human, plasma | oral, 3 mg single, geometric mean |  | 55.8 ng·h/mL |
| CCCn1cc(C)c2c(=O)[nH]c(-c3cc(S(=O)(=O)N4CCN(CC)CC4)ccc3OCC)nc21 |  | human, plasma | oral, 100 mg |  | 202 ± 117 ng·h/mL |
| COc1ccc([C@@H](O)c2cc(-c3ncnc4cc(N5CCOCC5)ccc34)c(F)cc2Cl)nn1 |  | healthy human volunteers, plasma | oral, 100 mg single dose, tablet, fed high-fat, geometric mean |  | 1250 ng·h/mL |
| C[C@H]1[C@H](OC(=O)CCC(=O)O)O[C@@H]2O[C@@]3(C)CC[C@H]4[C@H](C)CC[C@@H]1[C@@]24OO3 |  | human, both sexes, plasma | oral, dose not given, non-fixed combination |  | 186 ng·h/mL |
| CC[C@H](C)[C@@H]([C@@H](CC(=O)N1CCC[C@H]1[C@H](OC)[C@@H](C)C(=O)N[C@@H](Cc1ccccc1)C(=O)NCCCO)OC)N(C)C(=O)[C@@H](NC(=O)[C@H](C(C)C)N(C)C)C(C)C |  | human patients, plasma | intravenous, 36 mg/m², cycle 1 geometric mean |  | 1540 ng·h/mL |
| O=C(O)CCC(=O)O.[2H]C([2H])([2H])Oc1cc(C)c2[nH]ccc2c1CN1CC[C@@H](C2CC2)C[C@H]1c1ccc(C(=O)O)cc1 | LC-MS/MS, geometric mean | human, plasma | 600 mg, single dose, fasting |  | 235000 ng·h/mL |
| CC(C)NC(=O)COc1cccc(-c2nc(Nc3ccc4[nH]ncc4c3)c3ccccc3n2)c1 |  | human, male, fed, plasma | oral, 200 mg, day 3, adjusted geometric mean |  | 9200 ng·h/mL |
| CN(C(=O)C(C)(C)c1cc(C(F)(F)F)cc(C(F)(F)F)c1)c1cnc(N2C[C@H]3COCCN3C[C@H]2CO)cc1-c1ccc(F)cc1[14CH3] | refers to: total radioactivity | human, plasma | oral, 120 mg |  | 19400 ng equiv·h/mL |
| Cn1cncc1[C@@](N)(c1ccc(Cl)cc1)c1ccc2c(c1)c(-c1cccc(Cl)c1)cc(=O)n2C |  | human patients | oral, 300 mg/m2, first dose, cycle 1, initial cohort, median |  | 17100 ng·h/mL |
| C[C@H]1[C@@H](O)O[C@@H]2O[C@@]3(C)CC[C@H]4[C@H](C)CC[C@@H]1[C@@]24OO3 |  | human, both sexes, plasma | oral, dose not given, fixed-dose combination |  | 1310 ng·h/mL |
| C=CCn1c(=O)c2cnc(Nc3ccc(N4CCN(C)CC4)cc3)nc2n1-c1cccc(C(C)(C)O)n1 |  | human | oral, 300 mg once daily, monotherapy lead-in, -5 days | geometric mean | 8.68 µM·h |
| N#CN1C[C@H](n2nc(-c3ccc(Oc4ccc(Cl)cn4)cc3)c(C(N)=O)c2N)CCC12CC2 |  | human, fed, plasma | oral, 600 mg |  | 19400 ± 6500 ng·h/mL |

A few entries again:
| Structure (SMILES) | test | system | conditions | scale | AUC(0-t) |
| --- | --- | --- | --- | --- | --- |
| N#CN1C[C@H](n2nc(-c3ccc(Oc4ccc(Cl)cn4)cc3)c(C(N)=O)c2N)CCC12CC2 |  | human, fed, plasma | oral, 600 mg |  | 19400 ± 6500 ng·h/mL |
| C[C@H]1[C@@H](O)O[C@@H]2O[C@@]3(C)CC[C@H]4[C@H](C)CC[C@@H]1[C@@]24OO3 |  | human, both sexes, plasma | oral, dose not given, fixed-dose combination |  | 1310 ng·h/mL |
